# Experimental data gathered from unrelated publications.
# Compare with care: the assays were run in different laboratories. Several values in a cell are separate wells, animals, samples, runs or records. Numbers after ± are the reported error.
# DRD3: D(3) dopamine receptor (DRD3, Homo sapiens, UniProt P35462)
# Chain of UniProt P35462 (whole entry, looked up): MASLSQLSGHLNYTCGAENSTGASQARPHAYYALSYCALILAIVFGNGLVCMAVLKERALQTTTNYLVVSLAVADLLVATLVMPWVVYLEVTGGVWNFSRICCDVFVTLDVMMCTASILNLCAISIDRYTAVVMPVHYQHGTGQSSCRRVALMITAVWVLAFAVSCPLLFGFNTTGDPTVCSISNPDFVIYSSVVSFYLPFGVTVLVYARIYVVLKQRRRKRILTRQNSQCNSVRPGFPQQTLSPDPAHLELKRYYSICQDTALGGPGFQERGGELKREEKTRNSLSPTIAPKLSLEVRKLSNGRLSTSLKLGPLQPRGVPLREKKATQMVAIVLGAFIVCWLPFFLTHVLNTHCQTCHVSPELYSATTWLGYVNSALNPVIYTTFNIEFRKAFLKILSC
# CHRM2: Muscarinic acetylcholine receptor M2 (CHRM2, Homo sapiens, UniProt P08172)
# Chain of UniProt P08172 (whole entry, looked up): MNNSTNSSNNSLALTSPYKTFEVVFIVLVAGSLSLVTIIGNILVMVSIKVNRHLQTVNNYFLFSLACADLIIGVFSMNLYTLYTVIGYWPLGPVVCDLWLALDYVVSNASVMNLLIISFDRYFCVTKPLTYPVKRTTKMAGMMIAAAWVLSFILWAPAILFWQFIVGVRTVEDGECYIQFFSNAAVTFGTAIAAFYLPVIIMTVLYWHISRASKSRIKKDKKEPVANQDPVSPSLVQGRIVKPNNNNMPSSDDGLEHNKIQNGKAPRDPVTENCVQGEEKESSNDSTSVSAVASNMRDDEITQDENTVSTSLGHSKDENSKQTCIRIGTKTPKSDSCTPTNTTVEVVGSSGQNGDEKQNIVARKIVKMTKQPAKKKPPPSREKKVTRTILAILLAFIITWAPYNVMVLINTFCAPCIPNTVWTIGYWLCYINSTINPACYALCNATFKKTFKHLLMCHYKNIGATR
# CASP9: Caspase-9 (CASP9, Homo sapiens, UniProt P55211)
# Chain of UniProt P55211 (whole entry, looked up): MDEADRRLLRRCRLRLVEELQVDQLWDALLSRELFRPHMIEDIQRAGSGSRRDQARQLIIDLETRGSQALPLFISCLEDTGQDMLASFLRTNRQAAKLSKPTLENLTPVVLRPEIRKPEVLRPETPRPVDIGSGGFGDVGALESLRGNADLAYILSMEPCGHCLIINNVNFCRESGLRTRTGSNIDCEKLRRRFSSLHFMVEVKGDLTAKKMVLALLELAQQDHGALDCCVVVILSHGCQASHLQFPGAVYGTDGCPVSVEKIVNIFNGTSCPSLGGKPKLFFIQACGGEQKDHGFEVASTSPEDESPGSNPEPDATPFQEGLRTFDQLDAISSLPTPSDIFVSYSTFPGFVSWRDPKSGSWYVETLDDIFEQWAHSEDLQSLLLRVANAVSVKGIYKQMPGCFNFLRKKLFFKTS
# KDM1A: Lysine-specific histone demethylase 1A (KDM1A, Homo sapiens, UniProt O60341)
# cathepsin L: cathepsin L (Capra hircus, UniProt A0A452FFI6)
# HTR6: 5-hydroxytryptamine receptor 6 (HTR6, Homo sapiens, UniProt P50406)
# Chain of UniProt P50406 (whole entry, looked up): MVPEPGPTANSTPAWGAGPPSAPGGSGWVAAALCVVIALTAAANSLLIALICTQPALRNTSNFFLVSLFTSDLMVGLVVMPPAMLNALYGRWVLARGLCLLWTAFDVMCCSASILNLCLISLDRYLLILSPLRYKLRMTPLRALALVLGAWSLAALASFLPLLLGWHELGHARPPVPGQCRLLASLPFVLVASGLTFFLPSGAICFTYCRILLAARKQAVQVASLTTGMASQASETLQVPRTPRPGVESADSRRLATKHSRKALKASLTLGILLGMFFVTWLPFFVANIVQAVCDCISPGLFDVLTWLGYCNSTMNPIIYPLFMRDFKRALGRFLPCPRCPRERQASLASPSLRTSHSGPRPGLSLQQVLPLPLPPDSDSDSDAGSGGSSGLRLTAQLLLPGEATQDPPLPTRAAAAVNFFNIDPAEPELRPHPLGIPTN
# Uncharacterized protein: Uncharacterized protein (Trypanosoma cruzi, UniProt Q4DRC3)
# Chain of UniProt Q66K64 (whole entry, looked up): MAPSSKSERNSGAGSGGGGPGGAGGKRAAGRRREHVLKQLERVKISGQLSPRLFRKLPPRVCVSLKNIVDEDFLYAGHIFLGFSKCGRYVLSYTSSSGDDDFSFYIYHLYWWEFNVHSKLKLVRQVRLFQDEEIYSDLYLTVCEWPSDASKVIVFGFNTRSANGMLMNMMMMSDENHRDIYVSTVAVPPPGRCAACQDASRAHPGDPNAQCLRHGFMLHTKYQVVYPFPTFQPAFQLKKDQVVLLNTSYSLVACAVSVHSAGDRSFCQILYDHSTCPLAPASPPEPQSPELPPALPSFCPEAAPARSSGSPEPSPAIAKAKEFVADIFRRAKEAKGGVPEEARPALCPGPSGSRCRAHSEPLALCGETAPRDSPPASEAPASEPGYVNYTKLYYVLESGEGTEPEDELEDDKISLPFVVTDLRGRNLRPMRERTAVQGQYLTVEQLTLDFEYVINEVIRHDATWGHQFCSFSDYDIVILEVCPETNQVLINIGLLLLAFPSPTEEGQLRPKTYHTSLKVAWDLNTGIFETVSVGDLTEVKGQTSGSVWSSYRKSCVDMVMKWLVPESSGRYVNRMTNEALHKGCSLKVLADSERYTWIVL
# Chain of UniProt P51692 (whole entry, looked up): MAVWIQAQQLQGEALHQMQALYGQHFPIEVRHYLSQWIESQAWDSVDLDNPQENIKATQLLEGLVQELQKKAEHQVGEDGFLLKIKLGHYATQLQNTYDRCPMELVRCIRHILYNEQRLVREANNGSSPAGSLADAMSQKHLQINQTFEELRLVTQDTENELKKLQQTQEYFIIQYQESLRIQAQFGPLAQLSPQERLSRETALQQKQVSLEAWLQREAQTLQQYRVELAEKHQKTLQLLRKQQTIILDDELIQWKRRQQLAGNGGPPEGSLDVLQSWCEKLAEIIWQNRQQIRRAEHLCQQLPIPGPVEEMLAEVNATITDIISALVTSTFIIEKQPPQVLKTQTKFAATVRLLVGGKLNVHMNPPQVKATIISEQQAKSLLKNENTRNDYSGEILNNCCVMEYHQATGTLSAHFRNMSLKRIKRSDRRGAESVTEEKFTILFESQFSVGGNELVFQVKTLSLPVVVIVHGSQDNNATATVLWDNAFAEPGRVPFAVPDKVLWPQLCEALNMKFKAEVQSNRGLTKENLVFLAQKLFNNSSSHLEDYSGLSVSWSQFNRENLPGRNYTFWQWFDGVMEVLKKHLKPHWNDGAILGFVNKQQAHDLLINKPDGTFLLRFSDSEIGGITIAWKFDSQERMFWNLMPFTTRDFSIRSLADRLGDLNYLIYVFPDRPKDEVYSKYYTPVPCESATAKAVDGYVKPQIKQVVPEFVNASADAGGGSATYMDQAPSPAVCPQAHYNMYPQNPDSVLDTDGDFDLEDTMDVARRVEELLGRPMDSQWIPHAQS
# Chain of UniProt P05177 (whole entry, looked up): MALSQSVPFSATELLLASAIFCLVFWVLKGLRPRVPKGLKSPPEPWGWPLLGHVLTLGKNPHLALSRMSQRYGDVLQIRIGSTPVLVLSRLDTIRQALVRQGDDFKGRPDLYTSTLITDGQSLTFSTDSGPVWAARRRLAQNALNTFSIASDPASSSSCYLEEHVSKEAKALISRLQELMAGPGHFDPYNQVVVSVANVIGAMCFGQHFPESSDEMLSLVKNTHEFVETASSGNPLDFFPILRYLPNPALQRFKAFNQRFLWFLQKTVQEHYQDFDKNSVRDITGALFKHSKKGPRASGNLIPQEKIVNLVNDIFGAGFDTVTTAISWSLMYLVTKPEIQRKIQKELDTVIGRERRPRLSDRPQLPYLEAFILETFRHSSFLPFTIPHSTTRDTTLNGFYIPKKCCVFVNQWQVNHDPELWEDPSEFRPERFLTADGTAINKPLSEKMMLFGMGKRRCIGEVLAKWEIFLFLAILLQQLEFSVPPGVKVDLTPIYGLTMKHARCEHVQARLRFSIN
# Chain of UniProt P63086 (whole entry, looked up): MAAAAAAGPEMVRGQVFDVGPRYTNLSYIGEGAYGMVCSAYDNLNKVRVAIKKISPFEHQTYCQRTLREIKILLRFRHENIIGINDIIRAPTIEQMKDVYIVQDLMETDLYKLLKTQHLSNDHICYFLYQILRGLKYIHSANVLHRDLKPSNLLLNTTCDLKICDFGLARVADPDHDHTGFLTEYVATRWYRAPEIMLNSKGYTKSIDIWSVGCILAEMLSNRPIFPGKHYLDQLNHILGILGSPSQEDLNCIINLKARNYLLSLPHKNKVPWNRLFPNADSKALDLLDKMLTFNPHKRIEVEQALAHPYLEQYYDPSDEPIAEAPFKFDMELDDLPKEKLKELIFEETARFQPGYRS
# Chain of UniProt P33032 (whole entry, looked up): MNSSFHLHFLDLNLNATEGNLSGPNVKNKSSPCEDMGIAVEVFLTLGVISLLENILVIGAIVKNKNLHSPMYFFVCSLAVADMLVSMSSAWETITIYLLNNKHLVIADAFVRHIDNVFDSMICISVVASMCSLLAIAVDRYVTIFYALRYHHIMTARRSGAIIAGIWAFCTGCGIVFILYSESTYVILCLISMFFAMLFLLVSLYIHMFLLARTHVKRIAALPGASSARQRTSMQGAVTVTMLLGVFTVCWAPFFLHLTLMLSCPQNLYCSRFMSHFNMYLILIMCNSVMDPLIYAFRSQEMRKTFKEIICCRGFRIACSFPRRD
# Chain of UniProt P39748 (whole entry, unmodified, looked up): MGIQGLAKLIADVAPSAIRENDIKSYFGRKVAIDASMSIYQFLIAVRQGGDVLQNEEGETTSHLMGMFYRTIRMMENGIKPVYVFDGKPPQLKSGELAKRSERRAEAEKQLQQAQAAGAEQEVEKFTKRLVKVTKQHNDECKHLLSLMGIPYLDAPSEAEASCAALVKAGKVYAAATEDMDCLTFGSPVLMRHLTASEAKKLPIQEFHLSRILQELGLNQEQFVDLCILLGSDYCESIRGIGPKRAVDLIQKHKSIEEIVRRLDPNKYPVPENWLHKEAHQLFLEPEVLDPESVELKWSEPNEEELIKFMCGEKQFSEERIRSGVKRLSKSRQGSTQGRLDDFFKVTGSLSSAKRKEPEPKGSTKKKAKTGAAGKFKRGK
SMILES,target,assay,system,conditions,Ki
C[C@H]1CN(C2CC2)C[C@H]1NC(=O)c1cnc2c(F)ccc(F)c2c1,DRD3,"ligand displacement, radioligand",,cell membranes,> 10 µM
CN1CCC=C(c2nsnc2OCCCCCNC(=O)CCCNC(=O)c2cc(CN)cc(C(=O)NCCN3CCN(CCCCC4CCN(CC(=O)N5c6ccccc6NC(=O)c6ccccc65)CC4)CC3)c2)C1,CHRM2,"ligand displacement, radioligand",,,0.000224 µM
Cc1noc(-c2ccc(-n3cnc(C(=O)NCc4cccs4)c3)nc2)n1,"Alpha-synuclein, fibril (SNCA, Homo sapiens, UniProt P37840)","ligand displacement, radioligand",,,> 1 µM
CC(=O)NCC(=O)N[C@@H](CCC(=O)O)C(=O)N[C@@H](CO)C(=O)N1CCC[C@H]1C(=O)N[C@H](C=O)CC(=O)O,CASP9,"enzyme activity, inhibitor, fluorescence",,pH 7,2.45 µM
CN1CCC=C(c2nsnc2OCCCN2CCN(C)CC(N)C2)C1 (stereo not drawn),CHRM2,"ligand displacement, radioligand",,,12.6 µM
COc1ccc(CCCNCCCN(CCCN)CCCCNCCCN)cc1,KDM1A,"enzyme activity, inhibitor, absorbance",,,> 50 µM
CCCCCCCC/N=C1/SC[C@@H]2[C@@H](O)[C@H](O)[C@@H](O)[C@@H](CCC)N12,beta-glucosidase (almond),competitive inhibitor,,added: p-nitrophenyl glucopyranoside,> 2000 µM
O=C1Nc2ccccc2N(C(=O)CN2CCC(CCCCN3CCC(N4CCC(n5c(=O)[nH]c6ccccc65)CC4)CC3)CC2)c2ccccc21,CHRM2,"ligand displacement, radioligand",,,0.000759 µM
CCCCCCCC[C@@H]1[C@H](O)[C@@H](O)[C@H](O)[C@H]2CS/C(=N/CCCC)N12,beta-glucosidase (almond),competitive inhibitor,,added: p-nitrophenyl glucopyranoside,> 2000 µM
O=C(/C=C/c1ccc(Cl)cc1)c1ccccc1,cathepsin L,"enzyme activity, competitive inhibitor",goat liver enzyme,"pH 6.0, added: Z-Phe-Arg-4-methoxy-β-naphthylamide",0.0125 ± 8e-05 µM
Cc1cc(CN2CCOCC2)ccc1OCCCN1CCN(c2cccc3sccc23)CC1,HTR6,"ligand displacement, radioligand",,,0.296 µM
NC(=O)N/N=C(\C=C\c1cccc([N+](=O)[O-])c1)c1ccccc1,cathepsin L,"enzyme activity, competitive inhibitor",goat liver enzyme,"pH 6.0, added: Z-Phe-Arg-4-methoxy-β-naphthylamide",0.0149 ± 0.0002 µM
Cc1cc(CN2CCCC2)ccc1OCCCN1CCN(c2cccc3sccc23)CC1,HTR6,"ligand displacement, radioligand",,,0.464 µM
CCCCCCCCNC(=S)N1[C@H](CCCCCCCC)[C@H](O)[C@@H](O)[C@H](O)[C@H]1CO,beta-glucosidase (almond),competitive inhibitor,,added: p-nitrophenyl glucopyranoside,> 2000 µM
O=C(Cc1c(-c2ccccc2)n[nH]c1-c1ccccc1)NO,"MEP1A (Homo sapiens, UniProt Q16819)","enzyme activity, inhibitor",,,0.0013 µM
CN(CCNc1ncc(C#N)cc1Cl)Cc1ccc(F)cc1,DRD3,"ligand displacement, radioligand",,cell membranes,6.04 µM
CNc1ccccc1C(=O)O[C@H]1[C@@H](O)[C@H](n2ccc(=O)[nH]c2=O)O[C@@H]1COP(=O)(O)OP(=O)(O)O,"Adcy2 (Rattus norvegicus, UniProt P26769)","adenylyl cyclase activity, inhibitor",Sf9 membranes,"added: 5 mM MnCl2, 100 µM forskolin",2.7 ± 0.3 µM
OC[C@H](OCc1ccccc1)[C@H](O)C[S@@+]1C[C@@H](O)[C@H](O)[C@H]1CO,"GAA (Homo sapiens, UniProt P10253)","enzyme activity, inhibitor, absorbance",,pH 5.2,0.022 µM
O=c1[nH]cnc2c(CNCCCP(=O)(O)O)c[nH]c12,Uncharacterized protein,"IMP formation, uncompetitive inhibitor",,"pH 8.3, 37 °C, added: hypoxanthine 120 µM, PRPP 1 mM",8.4 ± 0.3 µM
O=C(NCc1ccc(OP(=O)(O)O)c(OP(=O)(O)O)c1)OCC1c2ccccc2-c2ccccc21,"Signal transducer and activator of transcription 5B, SH2 (STAT5B, Homo sapiens, UniProt P51692)","ligand displacement, FP",,,0.21 µM
CN1CCC=C(c2nsnc2OCCCCCNC(=O)c2ccc(C(=O)NCCCCCOc3nsnc3C3=CCCN(C)C3)cc2)C1,CHRM2,"ligand displacement, radioligand",,,0.00417 µM
O=c1c2sccc2n(CC2COc3ccccc3O2)c(=O)n1O (stereo not drawn),"Flap endonuclease 1 (Homo sapiens, UniProt P39748)",inhibitor,,added: double-flap substrate DF1,0.048 ± 0.005 µM
NCc1cc(C(=O)NCCN2CCN(CCCCC3CCN(CCCN4C(=O)CCc5ccccc54)CC3)CC2)cc(C(=O)NCCN2CCN(CCCCC3CCN(CC(=O)N4c5ccccc5NC(=O)c5ccccc54)CC3)CC2)c1,CHRM2,"ligand displacement, radioligand",,,0.000234 µM
C=CCSSC,"uncharacterized protein (Bradysia odoriphaga, UniProt A0A2S0X9G4)","binding, competitive fluorescence displacement",,,< 10 µM and 7 µM
CCCCc1nc2c([nH]1)[C@H](O)[C@@H](O)[C@H](O)[C@H]2O,sweet almond β-glucosidase,inhibitor,,"pH 5.2, added: 2,4-dinitrophenyl β-D-glucopyranoside",0.221 ± 0.004 µM
COc1ccc(CCCN[C@H]2CCC[C@@H]2CN[C@H]2CCC[C@@H]2CNCCCCN[C@@H]2CCC[C@H]2CN)cc1,KDM1A,"enzyme activity, inhibitor",,,2.5 µM
O=C(/C=C/c1ccccc1)c1ccccc1,cathepsin L,"enzyme activity, competitive inhibitor",goat liver enzyme,"pH 6.0, added: Z-Phe-Arg-4-methoxy-β-naphthylamide",0.01515 ± 0.0001 µM
CCC(=O)NC1CN(CCCCC2CCN(CC(=O)N3c4ccccc4NC(=O)c4ccccc43)CC2)CCN(CCCOc2nsnc2C2=CCCN(C)C2)C1 (stereo not drawn),CHRM2,"ligand displacement, radioligand",,,0.000457 µM
N=C(N)NCCC[C@H](NC(=O)[C@@H](Cc1ccccc1)NC(=O)[C@H](Cc1c[nH]cn1)NC(=O)C=Cc1ccc(O)cc1)C(=O)N[C@@H](Cc1c[nH]c2ccccc12)C(N)=O,"MC5R (Homo sapiens, UniProt P33032)","binding, TR-FRET competition",HEK293 transfected,"1 h, 37 °C, added: 10 nM Eu-NDP-α-MSH",> 10 µM
Nc1ncnc2c(CN3C[C@H](CSc4cnccn4)[C@@H](O)C3)c[nH]c12,"MTA/SAH nucleosidase (Campylobacter jejuni subsp. jejuni, UniProt Z9IB28FKP7)","enzyme activity, inhibitor",,slow-onset tight binding,0.0014 µM
O=c1[nH]c(=O)c2ncn([C@@H]3O[C@H](COP(=O)(O)O)[C@@H](O)[C@H]3O)c2[nH]1,Uncharacterized protein,"enzyme activity, inhibitor",,"product inhibition, noncompetitive Kis, added: xanthine 120 µM, PRPP variable",33 ± 5 µM
CC(=O)N[C@@H](Cc1ccccc1)C(=O)N[C@@H](CCC(N)=O)C(=O)N[C@@H](CCCNC(=N)N)C(=O)N[C@@H](CCCCN)C(=O)N[C@H](C(=O)N[C@@H](CC(C)C)C(=O)N[C@@H](CCC(N)=O)C(=O)N[C@@H](CCCNC(=N)N)C(=O)N[C@@H](CCCNC(=N)N)C(=O)N[C@@H](CC(N)=O)C(=O)N[C@@H](CC(C)C)C(=O)N[C@@H](CCCCN)C(=O)NCC(=O)N[C@@H](CC(C)C)C(=O)N[C@@H](CC(N)=O)C(=O)N[C@@H](CC(C)C)C(=O)N[C@@H](CC(N)=O)C(=O)N[C@@H](CC(C)C)C(=O)NCCCCCC(=O)NCCCCCC(=O)NCCCCCC(=O)N[C@H](C(=O)NCC(=O)N1CCC[C@H]1C(=O)N[C@@H](CC(C)C)C(=O)N[C@@H](CO)C(=O)N1CCC[C@H]1C(=O)NCC(=O)N1CCC[C@H]1C(=O)N[C@@H](Cc1ccccc1)C(N)=O)[C@@H](C)O)[C@@H](C)O,"Mapk1 (Rattus norvegicus, UniProt P63086)",kinase activity,,"pH 7.4, 27 °C, added: peptide substrate",2.4 ± 1 µM
O=C(NS(=O)(=O)c1ccc(Br)s1)c1ccc(Cl)cc1Cl,"DDB1- and CUL4-associated factor 15 (Homo sapiens, UniProt Q66K64)",binding,,,> 50 µM
Clc1cc(OCCCN2CCN(c3cccc4sccc34)CC2)ccc1CN1CCCCC1,HTR6,"ligand displacement, radioligand",,,0.396 µM
CC1CCC2(OC1)OC1CC3C4CC=C5CC(OC6OC(CO)C(OC7OC(CO)C(O)C7O)C(O)C6OC6OC(C)C(O)C(O)C6O)CCC5(C)C4CCC3(C)C1(O)C2C (stereo not drawn),"Cytochrome P450 1A2 (CYP1A2, Homo sapiens, UniProt P05177)","enzyme activity, inhibitor","human, liver microsomes",pH 7.4,3.18 µM
CCCCCCOc1ccc(C(=O)OCC[N+]2(C)CC=CCC2)cc1 (stereo not drawn),"muscarinic receptors M1-M5, human",binding,,added: [3H]-NMS 1 nM,~0.3 µM
CC(=O)N[C@@H](C)C(=O)N[C@@H](CC(=O)O)C(=O)N[C@@H](CCCNC(=N)N)C(=O)N[C@H](C(=O)N[C@H](C=O)CC(=O)O)[C@@H](C)O,CASP9,"enzyme activity, inhibitor, fluorescence",,pH 7,15.5 µM
CNC(=O)C1CCN(c2cc(C)c(F)cc2NC(=O)c2ccc(-c3cc(O)ccc3C)c(C)c2)CC1,"EPHB4 (Homo sapiens, UniProt P54760)","cell-free assay, TR-FRET",,,0.0048 µM
CC1=CC(C)=[N+]2C1=C(CCCCCN1CCC(O)(c3ccccc3)CC1)c1c(C)cc(C)n1[B-]2(F)F,"Sodium- and chloride-dependent glycine transporter 2 (Homo sapiens, UniProt Q9Y345)","cell-free assay, mass spectrometry",,,1.15 µM
O=c1[nH]cnc2c(CN[C@H](CO)CCP(=O)(O)O)c[nH]c12,Uncharacterized protein,"IMP formation, uncompetitive inhibitor",,"pH 8.3, 37 °C, added: hypoxanthine 120 µM, PRPP 1 mM",1.6 µM and 0.6 to 1.6 µM
C=C(C)[C@@H]1CC=C(C)CC1,"chemosensory protein 5 (Mythimna separata, UniProt A0A5H2NAD7)","binding, 1-NPN displacement",,pH 7.4,7.11 µM
O=C1N(CN2CCN(c3ccccc3)CC2)c2ccccc2C12OCCCO2,"HTR1A (Homo sapiens, UniProt P08908)","ligand displacement, radioligand",,,0.244 µM

# For quick reference, copied from above:
SMILES,target,assay,system,conditions,Ki
O=C(Cc1c(-c2ccccc2)n[nH]c1-c1ccccc1)NO,"MEP1A (Homo sapiens, UniProt Q16819)","enzyme activity, inhibitor",,,0.0013 µM
CCCCCCOc1ccc(C(=O)OCC[N+]2(C)CC=CCC2)cc1 (stereo not drawn),"muscarinic receptors M1-M5, human",binding,,added: [3H]-NMS 1 nM,~0.3 µM
NC(=O)N/N=C(\C=C\c1cccc([N+](=O)[O-])c1)c1ccccc1,cathepsin L,"enzyme activity, competitive inhibitor",goat liver enzyme,"pH 6.0, added: Z-Phe-Arg-4-methoxy-β-naphthylamide",0.0149 ± 0.0002 µM
